{"data": "Measured values collected from several papers", "note": "Lines come from different studies, so protocols differ. “And” joins repeats or separate records; there may be more than shown. ± gives the spread as reported."}
{"SMILES": "COc1cc(Oc2c(OC)cc(C)c(Br)c2O)c(C(=O)O)c(C)c1O", "cell line": "T47D", "technique": "MTT", "tested at": "10 or 50 µM", "time": "48 h", "viability": "112 ± 10%"}
{"SMILES": "COc1cc(N2CCN(C(=O)CN)CC2)ccc1Nc1ncc(Cl)c(Nc2ccccc2P(C)(C)=O)n1", "cell line": "NCI-H3122", "read-out": "cell growth or viability", "technique": "CCK-8", "tested at": "2.5 nM", "time": "48 h", "viability": "99%"}
{"SMILES": "CC1(C)C(=CC=C2CCCC(C=CC3=[N+](CCC[N+](C)(C)C)c4ccc(S(=O)(=O)O)cc4C3(C)C)=C2SCCOCCOCCC(=O)O)N(CCC[N+](C)(C)C)c2ccc(S(=O)(=O)O)cc21", "cell line": "H-1793", "technique": "CCK-8", "tested at": "25 µM", "viability": "~100%"}
{"SMILES": "COc1cc(N2CCN(C(=O)C3CCCN3)CC2)ccc1Nc1ncc(Cl)c(Nc2ccccc2P(C)(C)=O)n1 (stereo not drawn)", "cell line": "Ba/F3 EML4-ALK", "read-out": "cell growth or viability", "technique": "CCK-8", "tested at": "1 µM", "time": "1 h", "viability": "96% and 94% and 98%"}
{"SMILES": "COc1cc(Oc2c(O)c(Br)c(C)c(Br)c2OC)c(C(=O)O)c(C)c1O", "cell line": "T47D", "technique": "MTT", "tested at": "10 or 50 µM", "time": "48 h", "viability": "110 ± 4.1%"}
{"SMILES": "COc1ccc(Cn2cc(CO[C@@H]3O[C@H]4[C@H](OC[C@H]4O)[C@H]3N=[N+]=[N-])nn2)cc1", "cell line": "HCT-116", "read-out": "cytotoxicity", "technique": "CellTiter-Glo", "tested at": "up to 30 µM", "time": "72 h", "viability": "not toxic"}
{"SMILES": "CN1CCCNC(=O)c2cccc(c2)C(=O)NCCCN(C)CCCNc2cccc3c2C(=O)c2cccc(c2C3=O)NCCC1", "cell line": "HSC-2", "read-out": "cell growth or viability", "technique": "CCK-8", "tested at": "15 µM", "time": "48 h", "viability": "4.03%"}
{"SMILES": "Cc1ccc(-n2cc(CSc3nc4ccccc4n3Cc3cn(-c4ccc(C)cc4)nn3)nn2)cc1", "cell line": "HEK293", "technique": "MTT", "tested at": "15.6 ppm", "viability": "77%"}
{"SMILES": "[BH3-][P+]1(c2ccccc2)CCCCC1", "cell line": "HCT-116", "technique": "trypan blue", "tested at": "IC50", "time": "72 h", "viability": "95.3%"}
{"note": "For quick reference, copied from above:"}
{"SMILES": "[BH3-][P+]1(c2ccccc2)CCCCC1", "cell line": "HCT-116", "technique": "trypan blue", "tested at": "IC50", "time": "72 h", "viability": "95.3%"}
